Experimental data pooled from the literature.
Parts stem from different laboratories: compare values within a part only.

Block 1 — technique: universal PBM; molecule type: double-stranded DNA, one strand shown; sample: in vitro; concentration: 600 nM; direction: higher = stronger binding
Target: Sal-like protein 4, full length isoform A (SALL4, Homo sapiens, UniProt Q9UJQ4, residues 1-1053)
UniProt Q9UJQ4, sequence (whole entry, looked up): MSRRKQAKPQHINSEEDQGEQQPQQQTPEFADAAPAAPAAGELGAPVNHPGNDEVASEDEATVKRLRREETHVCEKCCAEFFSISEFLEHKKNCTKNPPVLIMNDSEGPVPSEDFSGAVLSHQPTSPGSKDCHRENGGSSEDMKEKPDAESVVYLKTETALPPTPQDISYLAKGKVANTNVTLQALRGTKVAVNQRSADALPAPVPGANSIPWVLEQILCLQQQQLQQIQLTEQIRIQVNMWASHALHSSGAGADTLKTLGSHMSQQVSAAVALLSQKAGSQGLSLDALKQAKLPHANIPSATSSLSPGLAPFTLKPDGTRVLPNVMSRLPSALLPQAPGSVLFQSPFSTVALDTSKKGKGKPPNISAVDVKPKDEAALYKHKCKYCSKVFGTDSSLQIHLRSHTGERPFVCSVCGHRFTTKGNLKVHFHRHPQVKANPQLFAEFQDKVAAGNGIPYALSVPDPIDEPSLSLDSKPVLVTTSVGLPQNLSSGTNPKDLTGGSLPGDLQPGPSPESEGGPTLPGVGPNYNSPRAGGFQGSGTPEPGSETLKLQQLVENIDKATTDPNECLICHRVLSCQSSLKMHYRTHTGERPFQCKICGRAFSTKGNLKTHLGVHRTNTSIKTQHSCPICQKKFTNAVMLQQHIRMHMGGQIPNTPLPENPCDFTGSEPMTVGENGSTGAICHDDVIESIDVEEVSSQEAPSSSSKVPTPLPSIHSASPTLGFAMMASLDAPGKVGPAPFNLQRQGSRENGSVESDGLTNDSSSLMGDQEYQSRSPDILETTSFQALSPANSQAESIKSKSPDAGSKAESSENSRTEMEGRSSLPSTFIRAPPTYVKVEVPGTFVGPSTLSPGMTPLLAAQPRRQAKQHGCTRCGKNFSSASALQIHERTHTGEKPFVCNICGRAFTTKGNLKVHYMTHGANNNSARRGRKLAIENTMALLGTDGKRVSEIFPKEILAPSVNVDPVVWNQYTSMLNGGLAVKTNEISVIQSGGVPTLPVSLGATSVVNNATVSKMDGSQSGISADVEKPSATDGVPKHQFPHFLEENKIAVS
Setting: 8-mer, flanks averaged, mean of replicates
| Oligonucleotide | E-score |
| --- | --- |
| ACTCCGCT | -0.212 |
| CAGATTTC | 0.0417 |
| TCTAAAAA | 0.222 |
| AAATGCCC | -0.234 |
| TGTCTCAA | 0.0642 |
| AGTCAAAA | 0.142 |
| AAAACCAA | 0.148 |
| TGCGCCAA | 0.00929 |
| AAGCAACT | 0.117 |
| ACGGCAAG | -0.1 |

Block 2 — technique: protein-binding microarray; molecule type: double-stranded DNA, one strand shown; sample: in vitro; concentration: 940 nM top; setting: 60-bp whole probe; with: salmon DNA 0.4 mg/ml; baseline: random background probes; direction: higher = stronger binding; all sequences stand within: GCCTAGCAC … GTCTTGATTCGCTTGACGCTGCTG
Target: Interferon regulatory factor 5, full length, phosphomimetic (IRF5, Homo sapiens, UniProt Q13568-2, residues 1-514, S451D/S453D/S456D/S462D)
| Oligonucleotide | fitted relative affinity [z-score] |
| --- | --- |
| TTCTAAACCATTTTGGTTTTGTGCTAG | -0.136 |
| GAGGGTTTCGGTTTCGGGACGTGCTAG | 12.2 |
| TTAGATCTCAGATTGGATTAGTGCTAG | -0.272 |
| GTAGATCTCAGTTTCGATTAGTGCTAG | 7.31 |
| TCAGGTATCGGGTTTCGGTTAGTGCTA | 7.14 |
| TTAGGACTGCATTTCCTTTAGTGCTAG | -0.529 |
| TTAGGACTGGTACTGGGTTAGTGCTAG | -0.644 |
| TCTCTTCTGCTTCCTCAGGACGTGCTA | 2.59 |
| GACGGTTCCCTATTCCTGACGTGCTAG | 0.88 |
| GACGGTATCCTACTGCTGCCGTGCTAG | -0.358 |
| TTAGGTCTCGGCATCGGTTAGTGCTAG | 1.79 |
| TTAGGACTGGGGTTCGGTTAGTGCTAG | -0.0586 |

Block 3 — technique: RNA Bind-n-Seq; molecule type: RNA; sample: in vitro; concentration: 200 nM; setting: whole 134-nt RNA, ends assumed; with: 150 mM LiCl; baseline: input library; direction: higher = stronger binding; library: 7-deaza-guanosine replaces G
Target: Fragile X messenger ribonucleoprotein 1, C-terminal low-complexity region (Fmr1, Mus musculus, UniProt P35922)
All sequences stand within: GGGAGUUCUACAGUCCGACGAUC … UGGAAUUCUCGGGUGUCAAGG
| Oligonucleotide | log2 enrichment |
| --- | --- |
| CUCAAGUCCUGUGCUACACAUCGUAUGUACCGAAUCGGGGAAGGGAAGGAAGGAAAGUAUUAUGUUACGCCGUUCGGAUCUGCACUUCCA | -0.927 |
| UCCUCAAGUCCUGUGCUACACAUCGUAUGUACCGAAUCGGGCGGCGGGCGGGAAAGUAUUAUGUUACGCCGUUCGGAUCUGCACUUCCAG | 0.751 |
| CUGUGCUACACAUCGUAUGUACCGAAUCGGGGAAAAAAAGGGGAAAAAGGGGUUUUUGGGGAAAGUAUUAUGUUACGCCGUUCGGAUCUG | -0.481 |
| UUCCAGGCUCAAGCACGGACAUCAGUGAGGACUGGGAGAAAGACUUUGACUUGGACAUGACUGAAGAGGAGGUGCAGAUGGCACUUUCCA | -2.98 |
| GUCCUGUGCUACACAUCGUAUGUACCGAAUCGGGAAAAAGGGUUUGGGAAAAAAAGGGAAAGUAUUAUGUUACGCCGUUCGGAUCUGCAC | -2.33 |
| UCCUGUGCUACACAUCGUAUGUACCGAAUCGGCCCCCCGGCCCCCCGGGGCCCCCCGGGGAAAGUAUUAUGUUACGCCGUUCGGAUCUGC | -0.29 |
| UUCAACAACUAGUACUGCUUCAAAUUAUCCAGAUGUGUUAACAAGGCCUUCUCUUCAUCGGAGCCAUCUGAAUUUUUCCAUGUUGGAAUC | 1.09 |
| CCUGUGCUACACAUCGUAUGUACCGAAUCGGAAAAAAAGGAAAAAAAGGGGAAAAAAAGGGAAAGUAUUAUGUUACGCCGUUCGGAUCUG | -0.697 |
| CCUGUGCUACACAUCGUAUGUACCGAAUCGGGUUUUUUGGUUUUUUGGGGUUUUUUGGGGAAAGUAUUAUGUUACGCCGUUCGGAUCUGC | -1.51 |
| CCUCAAGUCCUGUGCUACACAUCGUAUGUACCGAAUCGGGCGGGGCGGGCGGAAAGUAUUAUGUUACGCCGUUCGGAUCUGCACUUCCAG | -0.481 |
| GUCCUGUGCUACACAUCGUAUGUACCGAAUCGGGCCCCCGGGCCCCCGGGCCCCCGGGGAAAGUAUUAUGUUACGCCGUUCGGAUCUGCA | -2.39 |

Mixed results
| Substance | target | test | system | setting | how to read | measurement | result |
| --- | --- | --- | --- | --- | --- | --- | --- |
| PhoQ, residues 284 288 289 292 302 303 SACGEM | PhoP, residues 12 14 15 18 19 VQALL (Escherichia coli, UniProt P23836) | Sort-seq, refers to: YFP reporter | E. coli | PhoQ-PhoP variant library, with: 10 µM Mg2+ | baseline: high Mg2+ state, higher = stronger signaling | fold induction | 10.5 |

Repeated from above (block 2):
| Oligonucleotide | fitted relative affinity [z-score] |
| --- | --- |
| TCAGGTATCGGGTTTCGGTTAGTGCTA | 7.14 |
| TTAGGACTGCATTTCCTTTAGTGCTAG | -0.529 |
| TTAGGACTGGTACTGGGTTAGTGCTAG | -0.644 |
| TCTCTTCTGCTTCCTCAGGACGTGCTA | 2.59 |
| GACGGTTCCCTATTCCTGACGTGCTAG | 0.88 |
